Measurements of several laboratories.
Lines come from different studies, so protocols differ. ± gives the spread as reported.
CXCR4: C-X-C chemokine receptor type 4 (CXCR4, Homo sapiens, UniProt P61073)
Chain of UniProt P61073 (whole entry, looked up): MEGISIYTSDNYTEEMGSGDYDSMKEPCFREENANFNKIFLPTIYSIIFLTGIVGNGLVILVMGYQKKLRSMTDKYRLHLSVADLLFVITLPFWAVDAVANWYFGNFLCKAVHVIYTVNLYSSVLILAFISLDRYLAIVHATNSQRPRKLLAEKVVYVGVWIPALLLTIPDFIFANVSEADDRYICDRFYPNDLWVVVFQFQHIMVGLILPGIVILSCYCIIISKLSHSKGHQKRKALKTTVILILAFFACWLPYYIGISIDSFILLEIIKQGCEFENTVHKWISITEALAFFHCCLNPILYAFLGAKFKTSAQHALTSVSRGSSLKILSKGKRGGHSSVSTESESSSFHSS
Methionyl-tRNA synthetase, putative: Methionyl-tRNA synthetase, putative (Trypanosoma brucei brucei, UniProt Q38C91)
CELF1 del215-384: CUGBP Elav-like family member 1 (CELF1, Homo sapiens, UniProt Q92879, del215-384)
Chain of UniProt Q92879 (whole entry, unmodified, looked up): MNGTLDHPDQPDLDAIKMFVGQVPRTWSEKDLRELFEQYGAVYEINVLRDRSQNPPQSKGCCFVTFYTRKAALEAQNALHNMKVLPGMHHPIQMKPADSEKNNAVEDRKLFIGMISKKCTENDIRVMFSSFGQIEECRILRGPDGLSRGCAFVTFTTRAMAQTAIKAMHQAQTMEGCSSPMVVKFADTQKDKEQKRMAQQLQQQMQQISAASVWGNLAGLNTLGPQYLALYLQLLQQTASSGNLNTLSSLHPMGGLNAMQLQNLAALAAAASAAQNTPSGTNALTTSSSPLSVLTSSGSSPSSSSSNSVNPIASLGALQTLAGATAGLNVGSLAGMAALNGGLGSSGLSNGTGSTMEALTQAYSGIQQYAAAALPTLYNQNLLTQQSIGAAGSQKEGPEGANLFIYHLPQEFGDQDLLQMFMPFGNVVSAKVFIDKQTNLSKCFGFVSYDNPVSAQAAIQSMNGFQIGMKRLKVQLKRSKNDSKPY
Chain of UniProt P27487 (whole entry, looked up): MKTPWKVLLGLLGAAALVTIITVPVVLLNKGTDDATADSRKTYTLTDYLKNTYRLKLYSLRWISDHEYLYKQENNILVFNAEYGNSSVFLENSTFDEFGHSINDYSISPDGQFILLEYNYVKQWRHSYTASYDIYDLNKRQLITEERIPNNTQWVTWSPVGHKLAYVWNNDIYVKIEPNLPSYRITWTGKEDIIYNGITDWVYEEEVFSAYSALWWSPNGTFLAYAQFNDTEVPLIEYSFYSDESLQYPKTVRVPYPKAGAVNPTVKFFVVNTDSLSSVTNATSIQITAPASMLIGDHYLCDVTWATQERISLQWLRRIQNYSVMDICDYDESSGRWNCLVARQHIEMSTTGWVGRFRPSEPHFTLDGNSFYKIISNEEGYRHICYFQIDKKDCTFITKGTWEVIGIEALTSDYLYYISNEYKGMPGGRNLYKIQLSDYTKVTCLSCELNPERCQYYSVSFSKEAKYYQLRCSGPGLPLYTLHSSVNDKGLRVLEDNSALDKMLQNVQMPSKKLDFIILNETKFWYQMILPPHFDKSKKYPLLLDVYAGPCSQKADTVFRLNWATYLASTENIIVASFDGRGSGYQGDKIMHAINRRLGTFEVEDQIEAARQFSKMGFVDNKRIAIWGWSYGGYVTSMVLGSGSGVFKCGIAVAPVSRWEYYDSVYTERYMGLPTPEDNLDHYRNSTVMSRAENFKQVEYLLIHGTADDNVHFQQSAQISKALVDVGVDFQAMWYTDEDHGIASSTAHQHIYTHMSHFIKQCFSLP
Chain of UniProt P97583 (whole entry, looked up): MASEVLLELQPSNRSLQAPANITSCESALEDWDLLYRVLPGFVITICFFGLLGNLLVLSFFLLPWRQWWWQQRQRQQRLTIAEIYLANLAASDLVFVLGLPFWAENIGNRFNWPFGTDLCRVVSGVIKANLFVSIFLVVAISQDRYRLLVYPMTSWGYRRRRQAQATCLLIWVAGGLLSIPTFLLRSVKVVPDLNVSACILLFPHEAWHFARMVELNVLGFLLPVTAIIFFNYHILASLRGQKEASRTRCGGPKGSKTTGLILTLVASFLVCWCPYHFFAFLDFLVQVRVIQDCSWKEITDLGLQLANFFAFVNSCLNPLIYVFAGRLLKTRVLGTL
Chain of UniProt P05556 (whole entry, looked up): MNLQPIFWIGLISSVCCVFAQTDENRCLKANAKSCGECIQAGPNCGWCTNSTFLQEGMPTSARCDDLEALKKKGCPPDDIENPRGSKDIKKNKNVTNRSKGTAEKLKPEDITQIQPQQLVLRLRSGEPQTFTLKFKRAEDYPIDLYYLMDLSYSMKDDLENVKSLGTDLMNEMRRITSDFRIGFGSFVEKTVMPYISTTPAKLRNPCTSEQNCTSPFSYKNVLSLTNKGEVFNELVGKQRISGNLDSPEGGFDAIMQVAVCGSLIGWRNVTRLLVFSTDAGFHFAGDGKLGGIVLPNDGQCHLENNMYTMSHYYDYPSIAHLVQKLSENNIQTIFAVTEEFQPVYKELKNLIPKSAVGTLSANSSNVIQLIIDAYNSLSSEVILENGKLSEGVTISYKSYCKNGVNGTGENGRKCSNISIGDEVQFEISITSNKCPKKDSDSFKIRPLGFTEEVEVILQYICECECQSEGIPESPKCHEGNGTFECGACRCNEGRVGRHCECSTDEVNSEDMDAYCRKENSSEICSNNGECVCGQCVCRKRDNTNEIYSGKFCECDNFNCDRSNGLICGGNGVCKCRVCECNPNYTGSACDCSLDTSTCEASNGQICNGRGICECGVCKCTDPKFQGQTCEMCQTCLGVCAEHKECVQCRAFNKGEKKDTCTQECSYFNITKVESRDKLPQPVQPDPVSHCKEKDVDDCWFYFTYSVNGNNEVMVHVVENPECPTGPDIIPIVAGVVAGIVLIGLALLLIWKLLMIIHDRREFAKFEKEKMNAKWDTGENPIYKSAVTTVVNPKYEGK
Chain of UniProt P08235 (whole entry, looked up): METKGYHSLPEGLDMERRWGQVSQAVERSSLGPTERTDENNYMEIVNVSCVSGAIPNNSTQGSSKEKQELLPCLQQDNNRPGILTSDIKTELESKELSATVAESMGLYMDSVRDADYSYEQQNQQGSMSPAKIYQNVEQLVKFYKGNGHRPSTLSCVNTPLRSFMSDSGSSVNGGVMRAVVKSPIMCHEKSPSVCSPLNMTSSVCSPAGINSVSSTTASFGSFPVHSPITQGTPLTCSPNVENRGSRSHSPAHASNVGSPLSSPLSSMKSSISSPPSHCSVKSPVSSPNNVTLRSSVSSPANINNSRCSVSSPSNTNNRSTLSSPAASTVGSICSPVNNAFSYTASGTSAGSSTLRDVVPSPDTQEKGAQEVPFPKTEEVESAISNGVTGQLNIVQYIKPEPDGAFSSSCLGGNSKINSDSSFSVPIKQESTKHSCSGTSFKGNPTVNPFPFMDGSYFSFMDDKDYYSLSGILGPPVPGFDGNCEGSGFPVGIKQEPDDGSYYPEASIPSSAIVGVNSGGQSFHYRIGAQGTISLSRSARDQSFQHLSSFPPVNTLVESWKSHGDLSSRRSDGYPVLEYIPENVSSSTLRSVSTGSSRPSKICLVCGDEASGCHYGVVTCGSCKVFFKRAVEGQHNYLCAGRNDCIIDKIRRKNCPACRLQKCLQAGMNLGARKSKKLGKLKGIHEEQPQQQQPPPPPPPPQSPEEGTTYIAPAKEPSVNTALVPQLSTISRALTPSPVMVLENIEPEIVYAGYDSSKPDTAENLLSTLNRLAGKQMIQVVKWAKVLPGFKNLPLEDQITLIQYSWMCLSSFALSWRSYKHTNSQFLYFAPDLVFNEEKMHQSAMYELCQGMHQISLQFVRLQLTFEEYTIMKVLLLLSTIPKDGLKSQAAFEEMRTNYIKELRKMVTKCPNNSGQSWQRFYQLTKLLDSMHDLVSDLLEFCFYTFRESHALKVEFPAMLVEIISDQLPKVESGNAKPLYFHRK
Chain of UniProt P08648 (whole entry, looked up): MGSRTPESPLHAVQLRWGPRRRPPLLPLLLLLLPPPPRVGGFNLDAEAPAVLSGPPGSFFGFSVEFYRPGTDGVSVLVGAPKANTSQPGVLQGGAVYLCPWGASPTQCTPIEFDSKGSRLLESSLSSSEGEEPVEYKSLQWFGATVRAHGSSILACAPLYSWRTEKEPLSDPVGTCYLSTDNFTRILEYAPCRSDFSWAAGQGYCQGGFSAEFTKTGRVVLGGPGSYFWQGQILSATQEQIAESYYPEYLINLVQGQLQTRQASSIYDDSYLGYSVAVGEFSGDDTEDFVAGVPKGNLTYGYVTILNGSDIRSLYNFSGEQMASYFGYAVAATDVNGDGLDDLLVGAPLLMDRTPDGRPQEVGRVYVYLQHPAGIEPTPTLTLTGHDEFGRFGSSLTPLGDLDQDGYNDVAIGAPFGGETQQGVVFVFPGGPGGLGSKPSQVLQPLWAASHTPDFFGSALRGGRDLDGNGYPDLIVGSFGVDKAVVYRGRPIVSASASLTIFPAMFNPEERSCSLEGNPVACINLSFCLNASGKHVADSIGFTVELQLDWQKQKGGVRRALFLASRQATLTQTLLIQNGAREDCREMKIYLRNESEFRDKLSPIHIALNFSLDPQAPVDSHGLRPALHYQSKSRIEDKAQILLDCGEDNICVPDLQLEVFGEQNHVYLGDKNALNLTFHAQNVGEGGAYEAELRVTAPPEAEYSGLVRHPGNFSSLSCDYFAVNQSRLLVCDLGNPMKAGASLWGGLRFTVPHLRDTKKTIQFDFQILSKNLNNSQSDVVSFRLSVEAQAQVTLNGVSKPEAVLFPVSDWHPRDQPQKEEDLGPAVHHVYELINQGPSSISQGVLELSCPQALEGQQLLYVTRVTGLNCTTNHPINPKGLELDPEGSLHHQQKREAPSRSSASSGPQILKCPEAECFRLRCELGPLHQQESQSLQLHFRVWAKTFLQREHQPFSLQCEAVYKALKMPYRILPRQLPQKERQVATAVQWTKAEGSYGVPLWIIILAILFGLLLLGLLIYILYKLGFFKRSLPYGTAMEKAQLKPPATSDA
Chain of UniProt P28065 (whole entry, looked up): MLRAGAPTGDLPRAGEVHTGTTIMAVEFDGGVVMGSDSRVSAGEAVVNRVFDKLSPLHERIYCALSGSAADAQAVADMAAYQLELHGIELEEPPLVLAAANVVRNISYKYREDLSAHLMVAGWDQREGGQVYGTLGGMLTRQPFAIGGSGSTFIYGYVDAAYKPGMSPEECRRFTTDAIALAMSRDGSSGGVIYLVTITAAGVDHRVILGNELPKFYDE

Structure (SMILES)	target	assay	test system	conditions	scale	IC50 [µM]
O=C(CNC(=O)c1cccc(NC2=NCCCS2)c1)NC[C@H](NC(=O)c1c(Cl)cc(-c2ccccc2)cc1Cl)C(=O)O	Integrin alpha-5/beta-1 (Homo sapiens, UniProt P05556+P08648)	cell adhesion, inhibitor	SW480	together with: fibronectin 0.3 µg/mL	–	0.02
CCS(=O)(=O)c1ncc(N(Cc2ccco2)Cc2ccc(C)o2)c(C(=O)Nc2ccccc2F)n1	CXCR4	β-arrestin recruitment, antagonist	–	–	–	2
Cc1c(COc2cc(OCc3cccc(C#N)c3)c(CNCCO)cc2Cl)cccc1-c1cccc(OCCCCCCC(=O)NO)c1	Programmed cell death 1 ligand 1, with PD-1 (CD274, Homo sapiens, UniProt Q9NZQ7)	PD-1/PD-L1 binding, inhibitor, HTRF	–	–	–	0.109
NC(N)=NS(=O)(=O)c1ccc(NC(=O)CCC(=O)O)cc1	DPP4 (Homo sapiens, UniProt P27487)	enzyme activity, inhibitor, fluorescence	–	–	–	54.4
Nc1ncc2c(n1)-c1c([nH]c3ccc(C4=CCOCC4)cc13)CCC2	DSTYK (Homo sapiens, UniProt Q6XUX3)	enzyme activity, inhibitor, radiometric	–	–	–	6.1
CC(C)C[C@H](NC(=O)[C@H](Cc1ccc(CN)cc1)NC(=O)[C@H](Cc1ccccc1)N=[N+]=[N-])C(=O)N[C@H](C(=O)[C@@]1(C)CO1)C1CCCCC1	Proteasome subunit beta type-9 (Homo sapiens, UniProt P28065)	competitive ABPP	Raji cell lysate	–	–	> 10
FC(F)(CNCc1cc(Cl)cc(Cl)c1)CNc1nc2cccnc2[nH]1	Methionyl-tRNA synthetase, putative	enzyme activity, inhibitor	–	–	–	< 0.01
O=S(=O)(O)O/N=C(/CCc1ccccc1)S[C@@H]1O[C@H](CO)[C@@H](O)[C@H](O)[C@H]1O	PTPN1 (Homo sapiens, UniProt P18031)	enzyme activity, inhibitor, absorbance	–	–	–	7.65
O=C(Nc1ccccc1)Nc1cccc(O)c1	SRPK3 (Homo sapiens, UniProt Q9UPE1)	enzyme activity, inhibitor, FRET	–	–	–	7.5
C[C@@H]1Cc2c([nH]c3ccccc23)[C@@H](c2c(F)cc(/C=C/C(=O)O)cc2F)N1C12CC(C1)C2	NR3C2 (Homo sapiens, UniProt P08235)	MR receptor activity, antagonist, cell-based	–	–	–	2.28
CN1CCC[C@@H]1C(=O)N[C@@H](Cc1ccc(-c2ccccc2)cc1)B(O)O	20S proteasome beta subunits, part β2 subunit (Plasmodium falciparum, UniProt Q8I261+Q8I6T3)	β2 activity, inhibitor	–	together with: Ac-WLR-AMC	–	> 10
C#CCNC(=O)c1ccc(S(=O)(=O)N[C@@H](CCCCNC(C)=S)C(=O)N[C@@H](CCCNC(=N)N)C(=O)N[C@@H](CC2CCCCC2)C(N)=O)cc1	SIRT1 (Homo sapiens, UniProt Q96EB6)	enzyme activity, inhibitor, fluorescence	–	–	–	0.25
Cc1cc(C(=O)N(CC(=O)Nc2ccccc2F)Cc2ccc(Cl)cc2)ccc1S(N)(=O)=O	CA9 (Homo sapiens, UniProt Q16790)	enzyme activity, inhibitor	–	–	–	0.0129
CCCCCCCCCCCC(=O)O	uncharacterized protein (Spodoptera exigua, UniProt F1CEY0)	binding, fluorescence competitive binding	–	together with: 1-NPN 2.0 µM	–	2.99
CC(C)C[C@H](NC(=O)[C@H](Cc1ccc(CN)cc1)NC(=O)[C@H](Cc1ccccc1)N=[N+]=[N-])C(=O)N[C@@H](CC1CCCC2CCCCC21)C(=O)[C@@]1(C)CO1 (some centres unmarked)	PSMB5 (Homo sapiens, UniProt P28074)	competitive ABPP	Raji cell lysate	–	–	> 10
N=C(N)NCCC[C@@H]1NC(=O)[C@H](CCNC(=O)c2ccc(F)cc2)NC(=O)[C@@H](Cc2ccc(O)cc2)NC(=O)CNC(=O)[C@H](Cc2ccc3ccccc3c2)NC1=O	CXCR4	–	–	–	–	0.632
Clc1cc(Cl)cc(CNCCCNc2nc3ccccc3[nH]2)c1	Methionyl-tRNA synthetase, putative	enzyme activity, inhibitor	–	–	–	< 0.01
NC(=O)c1ncn(C2OC(COP(=O)(O)O)C(O)C2O)c1N (centres unmarked)	Fructose-1,6-bisphosphatase 1 (Mus musculus, UniProt Q9QXD6, G27P)	enzyme activity, inhibitor	–	–	–	> 10000
CO[C@@H]1[C@@H](OC(=O)c2ccc(C)[nH]2)[C@@H](O)[C@H](Oc2ccc3c(O)c(NC(=O)c4c[nH]c(C(=O)Nc5c(O)c6ccc(O[C@@H]7OC(C)(C)[C@H](OC)[C@@H](OC(=O)c8ccc(C)[nH]8)[C@H]7O)c(C)c6oc5=O)c4C)c(=O)oc3c2C)OC1(C)C	human CMG helicase	ATP hydrolysis, inhibitor, Transcreener ADP2 FP	–	together with: 0.5 mM ATP	–	~85
Cc1nc(S(=O)(=O)Nc2cc3c(cc2Oc2cccc(COCC(C)C)c2)n(C)c(=O)n3C)cn1C	Transcription initiation factor TFIID subunit 1, BD2 (TAF1, Homo sapiens, UniProt P21675)	enzyme activity, inhibitor, TR-FRET	–	–	–	> 20
N#Cc1c(N)nc2c(c1-c1ccc(O)cc1)Cc1cc(O)ccc1-2	Thymocyte selection-associated high mobility group box protein TOX, with KAT7 (Homo sapiens, UniProt O94900)	TOX-KAT7 binding, inhibitor, ELISA	–	–	no inhibition at 10 µM	> 10
Nc1nc2nc[nH]c2c(=S)[nH]1	CELF1 del215-384	CELF1-RNA binding, inhibitor, fluorescence polarization	–	CELF1 20 nM, together with: RNA 10 nM	–	17.1 ± 4.3
CC[C@H](C)[C@H](NC(=O)[C@H](CCCNC(=N)N)NC(=O)[C@@H]1CCCN1C(=O)[C@H](CCCCN)NC(=O)[C@@H](N)CC(C)C)C(=O)N[C@@H](CCCNC(=N)N)C(=O)O	B1 bradykinin receptor (Rattus norvegicus, UniProt P97583)	ligand displacement, radioligand	–	cell membranes	–	4.3
C[C@@H](O)[C@H](NC(=O)[C@@H]1CSSC[C@@H](NC(=O)[C@H](Cc2ccccc2)NC(N)=O)C(=O)N[C@@H](Cc2ccc(NC(N)=O)cc2)C(=O)N[C@H](Cc2c[nH]c3ccccc23)C(=O)N[C@@H](CCCCN)C(=O)N[C@@H]([C@@H](C)O)C(=O)N1)C(N)=O	SSTR3 (Homo sapiens, UniProt P32745)	ligand displacement, radioligand	–	–	–	> 1
O=C1C(Cl)=C(NCCN2CCOCC2)C(=O)c2ncccc21	CARM1 (Homo sapiens, UniProt Q86X55)	enzyme activity, inhibitor	–	–	–	1.3
Cc1nn(-c2cccc(N)c2)c(=O)c2cnc(Nc3ccc(N4CCNCC4)cc3)nc12	TSSK1B (Homo sapiens, UniProt Q9BXA7)	enzyme activity, inhibitor	–	–	–	> 10
Nc1nonc1-c1nnc2c(n1)-c1ccccc1C2=O	EHMT2 (Homo sapiens, UniProt Q96KQ7)	enzyme activity, inhibitor	–	–	–	1.2
Cn1c(S)nnc1-c1ccc(F)cc1	CELF1 del215-384	CELF1-RNA binding, inhibitor, fluorescence polarization	–	20 nM CELF1, together with: 10 nM RNA	–	0.63 ± 0.16
CC(=O)N[C@@H](CCCNC(=N)N)C(=O)N[C@H]1CSSC[C@@H](C(N)=O)NC(=O)[C@H](Cc2c[nH]c3ccccc23)NC(=O)[C@H](CCCNC(=N)N)NC(=O)[C@@H](Cc2ccc3ccccc3c2)NC(=O)[C@H](Cc2c[nH]cn2)NC(=O)[C@@H](C)NC1=O	MC3R (Homo sapiens, UniProt P41968)	cAMP, antagonist, split-luciferase cAMP sensor	–	12 min, together with: α-MSH 30 nM (EC90)	–	0.0218
